Published values pooled from the literature.
A part holds a random share of what one study measured.

Study 1
Target: Histone acetyltransferase KAT6A, both winged helices, GST fusion (KAT6A, Homo sapiens, UniProt Q92794, residues 1-181)
Technique: protein binding microarray
Molecule type: double-stranded DNA, one strand shown
Sample: in vitro
Concentration: not given
Notes: 8-mer, flanks averaged, mean of 2 arrays, mostly near background
Reference: not given
Reading: higher = stronger binding
Target sequence (chain): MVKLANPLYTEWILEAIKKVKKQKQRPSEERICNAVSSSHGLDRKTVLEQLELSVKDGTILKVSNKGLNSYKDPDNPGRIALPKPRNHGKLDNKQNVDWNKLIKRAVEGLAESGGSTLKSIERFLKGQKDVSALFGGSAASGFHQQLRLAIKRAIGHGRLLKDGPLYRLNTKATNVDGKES
Strand	E-score
CACGATCC	-0.0103
AGGGGTGC	-0.115
ACTATAAT	-0.0477
CGCCCCAG	-0.0606
GCGAATTA	0.0568
AATTTTCT	-0.143
ATAAGTGA	-0.191
CGTTCCAA	-0.179
GCCTACCC	-0.0883
CTCAAGTA	-0.174
AAGGACTT	-0.189
CCTACAGC	-0.0109
ATAAAAGA	0.102
ACCTTCGA	-0.114
ACACGTTG	-0.054
TAACAAAA	-0.0836
AACGAAGG	-0.162
AATCCGCG	0.275
GAATAGTA	-0.158
CTCGGTTA	0.0349
AGCCGGAG	0.16
GAAAAAGA	-0.0817
AAAGGAAA	-0.108
ATCGTATG	-0.0681
ATATCGGC	0.159

Study 2
Target: Interferon regulatory factor 3, full length, phosphomimetic (IRF3, Homo sapiens, UniProt Q14653, residues 1-427, S386D/S396D/S398D/S402D/T404D/S405D)
Technique: protein-binding microarray
Molecule type: double-stranded DNA, one strand shown
Sample: in vitro
Concentration: 2540 nM top
Notes: 60-bp whole probe
With: salmon DNA 0.4 mg/ml
Reference: random background probes
Reading: higher = stronger binding
Shared flanks, not repeated: GCCTAGCAC … GTCTTGATTCGCTTGACGCTGCTG
Construct (chain): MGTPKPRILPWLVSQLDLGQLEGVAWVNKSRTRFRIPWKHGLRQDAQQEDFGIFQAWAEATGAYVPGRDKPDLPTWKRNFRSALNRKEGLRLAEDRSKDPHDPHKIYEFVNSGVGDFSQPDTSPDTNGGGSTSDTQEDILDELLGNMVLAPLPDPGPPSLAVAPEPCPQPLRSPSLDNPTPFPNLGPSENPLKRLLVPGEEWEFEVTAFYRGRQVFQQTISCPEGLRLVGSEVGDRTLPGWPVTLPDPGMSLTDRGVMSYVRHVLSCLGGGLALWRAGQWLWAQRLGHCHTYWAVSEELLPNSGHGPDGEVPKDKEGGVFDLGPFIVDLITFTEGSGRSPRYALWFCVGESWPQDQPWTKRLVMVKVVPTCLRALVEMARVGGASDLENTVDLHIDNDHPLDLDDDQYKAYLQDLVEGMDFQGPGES
Strand	fitted relative affinity
TTAGATTTCAGGATCGATTAGTGCTAG	1.17 z-score
GACGAACCGGGGACTGGAGACGTGCTA	-0.623 z-score
GACGGTCTCCTCATCCTGACGTGCTAG	0.746 z-score
TTAGGACTGCTACTGCTCTAGTGCTAG	-0.499 z-score
GACGATATGAGACTGGAGACGTGCTAG	-0.26 z-score
GACGTTTTCCTTATCCTGACGTGCTAG	4.72 z-score
GACGGTTCCGGTTTCGGTACGTGCTAG	7.76 z-score
TTAGGTTTCGACTATCGGTCAGTGCTA	2.31 z-score
GACAATCTCAGTTTCGAGACGTGCTAG	2.76 z-score
GACGGTATCGGGACTGGGAACGTGCTA	1.85 z-score
TTAGGACTGGGGACTGGGCTAGTGCTA	-1.16 z-score
ATAGATATCAGACTGGATTAGTGCTAG	0.147 z-score
TTTACTAGGAGTTTTCAGTCCGTGCTA	0.5 z-score
GATGGTCTCCTTATCCTGACGTGCTAG	2.4 z-score
TGGGACCAGCACAGACAGTCGTGCTAG	-0.812 z-score
TTAGATTTCCTTTCCCTTTAGTGCTAG	7.16 z-score
GACGGTCTACTACTGCTGACGTGCTAG	-0.119 z-score
TTAGGTCTCCTTTTCCTATAGTGCTAG	5.17 z-score
TTAGGTTTCCTTCCCCTTTAGTGCTAG	5.45 z-score
TCATGTCCCTGTTTCTAACTGTGCTAG	1.18 z-score
TTATGGTGTGGAGAAGGCACGTGCTAG	-0.782 z-score
GACGGTTTCGGGTTTCGTGACGTGCTA	5.34 z-score
GACGGGTTCGGTCTCGGGACGTGCTAG	1.47 z-score
TCATTTTTTCATATATAACTGTGCTAG	1.83 z-score
TCACCTATCCAAGTTCCCACTGTGCTA	1.23 z-score

Study 3
Target: RNA binding protein fox-1 homolog 2, RRM domain, GST-SBP tag (RBFOX2, Homo sapiens, UniProt O43251-10, residues 100-194)
Technique: RNA Bind-n-Seq
Molecule type: RNA
Sample: in vitro
Concentration: 365 nM
Notes: natural RNA segment, single round, ends assumed
Reference: no-protein control
Reading: higher = stronger binding
Shared flanks, not repeated: GGGAGUUCUACAGUCCGACGAUC … UGGAAUUCUCGGGUGCCAA
Target sequence (chain): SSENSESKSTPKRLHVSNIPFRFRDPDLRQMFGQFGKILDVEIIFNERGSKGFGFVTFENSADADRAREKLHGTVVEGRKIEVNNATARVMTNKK
Strand	RBNS enrichment (R)
GGCCUUAGCAGAAGUGACUGACUUAAAGUGUUUUAGUUUCUUACUGAUGAGUGAAUUCAGUUCCCUACCAACUAAUGCGCAGAAUUGAAGAAUCCCAUCCUGCACACAUU	0.802
ACUACUAACAUGGAGAGAAUGCCGUGUAUACCUCACGUACUGUGUGCUUUAUAUUUGUAUAUACAUUUUACCUUUUAUACAGAUGUCCGAUUGUUGUCAUUUGGCUCUGC	1.03
UAUCCCUACAAUGUACUGACAGUUCUUACAGUUGAGAUUUGUUCUUUUCAGCUAUUGCUUGUGAAAAAAAGCAAGACUAUGUCACUCUAUAGAAGGCUGUUAAAGUGACU	0.411
UUGGUGCUUUGUUUAUGGUAGUAGUUUUUCUGUAACACAGAAUAUAGGAUAAGAAAUAAGAAUAAAGUACCUUGACUUUGUUCACAGCAUGUAGGGUGAUGAGCACUCAC	14.9
AAUUAGAUUCUAAAACACAAAUCACAAGAACGUUUGAUAUUGAAGUGUCUGGCUUUAACAUGUGAUUCCACAAGAGUAGAAGCAAGAAAGGUAUAUACUUUUAGGAGCCU	0.59
UGACAAGGGCAGGCCUUGAAUUGGGAGCAGCAGCCACCUGGCCUCACUCUGGCCACAGGUGACACUUGGUCCUUGCUGCCACCUGCUUGGGGCUAUGUGGCUACGGCUAC	0.318
UUAAAUAAAUGAAUGUCUAUACUUUUUAAGGAAAAGAGAAAAUACCAUGUCACAGAAAAGGUGAAACUAUUAGAUGCUGUUUAGAAAGCAUUUAUCUUGCAUUUCUUUAU	1.5
CCCUGCACUCAAGGGCCAGACCACUCUCUGCAUGGACCAGACCAUCUUCCCAAACCCAUGGUGCUUUUUCCCCAACUCAACCUAGACUCCAAGGUGGGGAGGGAUGGGUC	3.83
UGCCAAGGUAGAGAACUGUGAGUGACUGUUGGUGUGGUGAAGGGUGUUGACCAUGCAGGGAAGUGGCCAAUGUGCCCACUUCCCAUCUCUUCCUUGCGCAUUGUCAGCAU	0.63
UCAGUUCUUUUAAAAUUUCUUCAAGAAAAUCCAGGCUAUCACAUAGUCUUUCUGUGUGACUUAUUAGGAGAUAGGAAGAGCAUUGGGAAACUUGCACAGCUAGCUAUGCA	0.565
AGGACGUGGAGAGUGGCAGUGACGAAGGUCAUUUGUUUUCAGGGAGGUAGGGUUUAAAGACCCCCAGUGGGAGCAUUUAGAUGGCAGGCGGCUGCAAGGAGUCUGCAGUG	0.637
UGCUUUAUGUGGGCAUGAGAUGUCCCGUGAGGUCAUAGCUCCUUCUUUAGGAACUGCCUGUCCAUGAGAUGUCCCGUGAGGUCAUAGCUCCCUCUUUAGGGACUGUCUGU	0.273

Study 4
Target: Sal-like protein 4, full length isoform B (SALL4, Homo sapiens, UniProt Q9UJQ4-2, residues 1-616)
Technique: universal PBM
Molecule type: double-stranded DNA, one strand shown
Sample: in vitro
Concentration: not given
Notes: 8-mer, flanks averaged, mean of replicates
Reading: higher = stronger binding
Target sequence (chain): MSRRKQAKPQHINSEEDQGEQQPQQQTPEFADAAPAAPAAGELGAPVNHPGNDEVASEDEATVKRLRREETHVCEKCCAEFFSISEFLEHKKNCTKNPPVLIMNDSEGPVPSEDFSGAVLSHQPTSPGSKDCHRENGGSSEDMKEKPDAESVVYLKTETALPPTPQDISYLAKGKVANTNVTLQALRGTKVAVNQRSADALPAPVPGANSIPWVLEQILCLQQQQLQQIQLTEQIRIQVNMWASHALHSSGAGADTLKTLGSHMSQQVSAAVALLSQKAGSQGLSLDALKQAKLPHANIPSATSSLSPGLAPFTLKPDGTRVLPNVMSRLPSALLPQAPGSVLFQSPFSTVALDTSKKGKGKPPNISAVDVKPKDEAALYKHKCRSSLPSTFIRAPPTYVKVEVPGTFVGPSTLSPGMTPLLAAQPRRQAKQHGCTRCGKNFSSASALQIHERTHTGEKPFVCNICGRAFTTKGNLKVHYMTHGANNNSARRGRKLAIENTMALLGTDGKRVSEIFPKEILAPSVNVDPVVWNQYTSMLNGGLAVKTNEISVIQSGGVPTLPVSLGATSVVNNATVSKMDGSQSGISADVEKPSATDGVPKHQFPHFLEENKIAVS
Strand	E-score
CCACTTCC	-0.0999
CCCTCGTA	-0.148
AGCGTATC	-0.0719
AGTTAGAA	0.0484
AAAACTCT	-0.0638
GGCTCATA	0.116
CAGATCTA	0.081
GAGCAATC	-0.0916
ACTTACTG	0.068
CCTCAGCG	-0.107
GGTAGGTA	-0.0629
ACATTAGC	-0.0158
AAGTTACA	0.11
AAAGCTGC	-0.165
ATGACAAT	0.328
ATTAAATG	0.247
CCAACCCA	-0.0941
ACTGTCAC	0.044
GGTTACAC	-0.0348
CGGTAACG	-0.102
TCGTCTCA	-0.0445
AATTTGAT	0.215

For quick reference, copied from above (study 4):
Strand	E-score
CCTCAGCG	-0.107
CGGTAACG	-0.102
CCAACCCA	-0.0941
ACTTACTG	0.068
AAGTTACA	0.11
GAGCAATC	-0.0916
CCACTTCC	-0.0999
ACTGTCAC	0.044
ATTAAATG	0.247
CAGATCTA	0.081
GGCTCATA	0.116
AAAGCTGC	-0.165
